Assay results of several laboratories.
Compare with care: the assays were run in different laboratories.
B1: ERRFI1 330-399 Y358A (human, UniProt Q9UJM3); N-terminal FITC; sequence looked up; chain SRTPSPKSLPSYLNGVMPPTQSFAPDPKAVSSKALQRQNSEGSASKVPCILPIIENGKKVSSTHYYLLPE
B2: Rai14 1-400 (Mus musculus, UniProt Q9EP71); sequence looked up; chain MKSLKAKFRKSDTNEWNKNDDRLLQAVENGDAEKVASLLGKKGASATKHDSEGKTAFHLAAAKGHVECLKVMVTHGVDVTAQDSSGHSALHVAAKNGHPECIRKLLQYKSPAENIDNSGKTALHYAAAQGCLQAVQLLCEHKSPINLKDLDGNIPLLVAVQNGHSEACHFLLDHGADVNSRDKNGRTALMLACETGSSNTVDALIKKGADLSLVDSLGHNALHYSKLSENAGIQNLLLSKISQDADLKTPTKPKQHDQVSKISSERSGTPKKRKAPPPPISPTQLSDVSSPRSITSTPLSGKESVFFAEAPFKAEISSIQENKDRLSDSTAGADSLLDISSEADQQDLLVLLQAKVASLTLHNKELQDKLQAKSPKDKEAEADLSFQSFHSTQTDLAPSP
B3: SIN4 1-974 (Saccharomyces cerevisiae, UniProt P32259); chain MMLGEHLMSWSKTGIIAYSDSQSSNANICLTFLESINGINWRFHTPQKYVLHPQLHEVQYQESSSTLSTHSTTTSVNGSTTAGVGSTPNFGGNSNKSPPQFFYNISSIHWNNWFSLPGDMLAVCDELGNMTMLITGQRPDRATTYEKLTMVFQDNVYKIYNHVMPLKPVDKLKPMNIERKQTRKEYNTSILEFRWLTSSKSVIVSQFCAFDSSSNTYRSRAQQVPPYGVYHPPFIKYACLAIRKNGQIDFWYQFSNSKDHKKITLQLLDTSNQRFKDLQWLEFARITPMNDDQCMLITTYSKLSKNISFYKLHVNWNLNATKPNVLNDPSLKIQFILSTTLDPTDDEGHVLKLENLHVVSKSSIEKDPSPEILVLYNVCDTSKSLVKRYRLAPTQLSAEYLVILKPDLNIDRNNSTNQIFQSRRYNLRRHSDIVLDKKVTLITSEMFDAFVSFYFEDGTIESYNQNDWKLETERLISQSQLGKFKNIIASPLSAGFNYGKLPLPPSVEWMKVSPSMCGVIVKQYNKKWPQFYAAVQKNYADPEKDSINATALAFGYVKSLHKQISAEDLTIAAKTHILRISFLDRKRAKEFITTLLKSLYSFFNISPDAPKEIMDKIITSRPLQKIMLLQLELGSCFSQENIEEMARVILYLKNVLFAFNGVARNFHFAIEQISNNSNQQQNPKLFQTIFSKQDLIHSLIPVAKWFVKFITYLTQEILILINDPTNKEYTLVHGIFGAKMSRTLILSILNEIKKVTQIVAKFPETSYPILNESSTFLKLVLSESPVDFEKFETFLVDVNNKFIALCEQQPSQEREFSLLVKAEIPPEYAKVGDFLLQYANNAVISHANAAAVYFADTSGLKISNSEFFNPEIFHLLQPLEEGLIIDTDKLPIKNRTSKSFSKLLYDDVTCDKLSVSEISDGKLKRCSRCGSVTRAGNIISSDKTIVPTSIQTKRWPTMYTRLCICSGMLFEMDG
B4: RB1CC1 1286-1594 (Homo sapiens, UniProt Q8TDY2); chain SLVAELQEKLQEEKAKFLEQLEEQEKRKNEEMQNVRTSLIAEQQTNFNTVLTREKMRKENIINDLSDKLKSTMQQQERDKDLIESLSEDRARLLEEKKKLEEEVSKLRSSSFVPSPYVATAPELYGACAPELPGESDRSAVETADEGRVDSAMETSMMSVQENIHMLSEEKQRIMLLERTLQLKEEENKRLNQRLMSQSMSSVSSRHSEKIAIRDFQVGDLVLIILDERHDNYVLFTVSPTLYFLHSESLPALDLKPGEGASGASRRPWVLGKVMEKEYCQAKKAQNRFKVPLGTKFYRVKAVSWNKKV
B5: PAN1 543-850 (Saccharomyces cerevisiae, UniProt P32521); sequence looked up; chain LTGLQPQPTGFLPPSNFSATMPLTAQKTGFGNNEIYTKSNFNNNLIDNSSQDKISTEEKSLFYKIFETFDTQNKGLLDSPTAVEIFRKSGLNRADLEQIWNLCDINNTGQLNKQEFALGMHLVYGKLNGKPIPNVLPSSLIPSSTKLLDNLKNQLKTEPTTTKEKPSFGKIDALSYKNNDDDVLPNYRNRRKVYSAKNEEQSSFSSPSAKSVNHSSSTLQTDDISVDKTVEKKTAKPKYAGFSREINLKNIASLENEIKNISNPENCYDSSIPSDLTSRFDAIIAKLPNLFNEISTIDNEITNAKIQL
B6: RAD18 267-402 (Homo sapiens, UniProt Q9NS91); sequence looked up; chain IQGNKQQLIKRHQEFVHMYNAQCDALHPKSAAEIVREIENIEKTRMRLEASKLNESVMVFTKDQTEKEIDEIHSKYRKKHKSEFQLLVDQARKGYKKIAGMSQKTVTITKEDESTEKLSSVCMGQEDNMTSVTNHF
B7: CCDC32 (Mus musculus, UniProt Q8BS39); chain MKMFESLDSSATKSGRDLWAEICSCLPSPAQEDVSDNAFSDSFMDSHPAGESHTAAADSAVQPAGKPWAPLHDSEVYLASLEKKLRRIKGLNEEVTSKDMLRTLAQAKKECWDRFLQEKLASEFFVDGLDSDERTLEHFKRWLQPDKVAISTEEVQFLIPPESQAEKPEAGDKPAAAEQ
B8: FAM126B 1-308 (Homo sapiens, UniProt Q8IXS8); chain MLGTDRCVVEEWLSEFKALPDTQITSYAATLHRKKTLVPALYKVIQDSNNELLEPVCHQLFELYRSSEVRLKRFTLQFLPELMWVYLRLTVSRDRQSNGCIEALLLGIYNLEIADKDGNNKVLSFTIPSLSKPSIYHEPSTIGSMALTEGALCQHDLIRVVYSDLHPQRETFTAQNRFEVLSFLMLCYNSAIVYMPASSYQSLCRMGSRVCVSGFPRQHEKHWKELCGRIVLDPEFMVQLLTGVYYAMYNGQWDLGQEVLDDIIYRAQLELFSQPLLVANAMKNSLPFDAPDSTQEGQKVLKVEVTPT
B9: NOTCH2 221-530 (Homo sapiens, UniProt Q04721); sequence looked up; chain LYVPCAPSPCVNGGTCRQTGDFTFECNCLPGFEGSTCERNIDDCPNHRCQNGGVCVDGVNTYNCRCPPQWTGQFCTEDVDECLLQPNACQNGGTCANRNGGYGCVCVNGWSGDDCSENIDDCAFASCTPGSTCIDRVASFSCMCPEGKAGLLCHLDDACISNPCHKGALCDTNPLNGQYICTCPQGYKGADCTEDVDECAMANSNPCEHAGKCVNTDGAFHCECLKGYAGPRCEMDINECHSDPCQNDATCLDKIGGFTCLCMPGFKGVHCELEINECQSNPCVNNGQCVDKVNRFQCLCPPGFTGPVCQ
B10: RAD17 1-401 (Saccharomyces cerevisiae, UniProt P48581); chain MRINSELANKFSASTVHLEHITTALSCLTPFGSKDDVLIFIDADGLSFVRENNHVIKIQLLLSRELFMSYSYRNETEDHMKLCVKINHILDSVSVMNRNSDDIVECTLSYDGHGSPFVLIFEDSFISERVEYSTYLIKDFDTNGLELDRERISFEAIIKGEALHSALKDLKEIGCKECYVYAKTEANDENVFALISKSQLGFSKIKLPSNRSILEKLQVFDGDSTTVIDGFAVIGFFDFTSFDKIRKSTKIASKVLFRMDVHGVLSVNILSQTDDVIITDTTRPSNNRPGSIRQLQLPKDYPGIVIEVCMLEKESIDEAAQTEIELLMETNELGNRNSFKKSTIRKRYGTDKGNETSNDNLLQLNGKKIKLPSEEENNKNRESEDEENHCKYPTKDIPIFF
B11: GP1BA 17-306 D235Y/M239V (Homo sapiens, UniProt P07359); sequence looked up; chain HPICEVSKVASHLEVNCDKRNLTALPPDLPKDTTILHLSENLLYTFSLATLMPYTRLTQLNLDRCELTKLQVDGTLPVLGTLDLSHNQLQSLPLLGQTLPALTVLDVSFNRLTSLPLGALRGLGELQELYLKGNELKTLPPGLLTPTPKLEKLSLANNNLTELPAGLLNGLENLDTLLLQENSLYTIPKGFFGSHLLPFAFLHGNPWLCNCEILYFRRWLQDNAENVYVWKQGVYVKAVTSNVASVQCDNSDKFPVYKYPGKGCPTLGDEGDTDLYDYYPEEDTEGDKVR
B12: UPF3B 2-483 (Homo sapiens, UniProt Q9BZI7); sequence looked up; chain KEEKEHRPKEKRVTLLTPAGATGSGGGTSGDSSKGEDKQDRNKEKKEALSKVVIRRLPPTLTKEQLQEHLQPMPEHDYFEFFSNDTSLYPHMYARAYINFKNQEDIILFRDRFDGYVFLDNKGQEYPAIVEFAPFQKAAKKKTKKRDTKVGTIDDDPEYRKFLESYATDNEKMTSTPETLLEEIEAKNRELIAKKTTPLLSFLKNKQRMREEKREERRRREIERKRQREEERRKWKEEEKRKRKDIEKLKKIDRIPERDKLKDEPKIKVHRFLLQAVNQKNLLKKPEKGDEKELDKREKAKKLDKENLSDERASGQSCTLPKRSDSELKDEKPKRPEDESGRDYREREREYERDQERILRERERLKRQEEERRRQKERYEKEKTFKRKEEEMKKEKDTLRDKGKKAESTESIGSSEKTEKKEEVVKRDRIRNKDRPAMQLYQPGARSRNRLCPPDDSTKSGDSAAERKQESGISHRKEGGEE
B13: POL30 1-258 (Saccharomyces cerevisiae, UniProt P15873); chain MLEAKFEEASLFKRIIDGFKDCVQLVNFQCKEDGIIAQAVDDSRVLLVSLEIGVEAFQEYRCDHPVTLGMDLTSLSKILRCGNNTDTLTLIADNTPDSIILLFEDTKKDRIAEYSLKLMDIDADFLKIEELQYDSTLSLPSSEFSKIVRDLSQLSDSINIMITKETIKFVADGDIGSGSVIIKPFVDMEHPETSIKLEMDQPVDLTFGAKYLLDIIKGSSLSDRVGIRLSSEAPALFQFDLKSGFLQFFLAPKFNDEE
UniProt Q02574, sequence (whole entry, looked up): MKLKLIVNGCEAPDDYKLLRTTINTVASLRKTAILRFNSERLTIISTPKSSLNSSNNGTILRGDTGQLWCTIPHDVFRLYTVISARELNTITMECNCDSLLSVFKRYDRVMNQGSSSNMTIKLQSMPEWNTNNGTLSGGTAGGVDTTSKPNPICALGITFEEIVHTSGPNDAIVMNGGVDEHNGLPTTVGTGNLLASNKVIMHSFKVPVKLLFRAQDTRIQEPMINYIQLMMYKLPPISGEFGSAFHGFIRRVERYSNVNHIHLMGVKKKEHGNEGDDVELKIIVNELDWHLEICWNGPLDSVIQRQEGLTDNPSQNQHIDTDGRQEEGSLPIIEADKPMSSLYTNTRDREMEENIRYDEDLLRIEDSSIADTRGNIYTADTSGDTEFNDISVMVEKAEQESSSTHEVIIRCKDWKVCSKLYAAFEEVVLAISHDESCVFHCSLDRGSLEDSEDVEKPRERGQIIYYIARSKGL
UniProt Q9NR61, sequence (whole entry, looked up): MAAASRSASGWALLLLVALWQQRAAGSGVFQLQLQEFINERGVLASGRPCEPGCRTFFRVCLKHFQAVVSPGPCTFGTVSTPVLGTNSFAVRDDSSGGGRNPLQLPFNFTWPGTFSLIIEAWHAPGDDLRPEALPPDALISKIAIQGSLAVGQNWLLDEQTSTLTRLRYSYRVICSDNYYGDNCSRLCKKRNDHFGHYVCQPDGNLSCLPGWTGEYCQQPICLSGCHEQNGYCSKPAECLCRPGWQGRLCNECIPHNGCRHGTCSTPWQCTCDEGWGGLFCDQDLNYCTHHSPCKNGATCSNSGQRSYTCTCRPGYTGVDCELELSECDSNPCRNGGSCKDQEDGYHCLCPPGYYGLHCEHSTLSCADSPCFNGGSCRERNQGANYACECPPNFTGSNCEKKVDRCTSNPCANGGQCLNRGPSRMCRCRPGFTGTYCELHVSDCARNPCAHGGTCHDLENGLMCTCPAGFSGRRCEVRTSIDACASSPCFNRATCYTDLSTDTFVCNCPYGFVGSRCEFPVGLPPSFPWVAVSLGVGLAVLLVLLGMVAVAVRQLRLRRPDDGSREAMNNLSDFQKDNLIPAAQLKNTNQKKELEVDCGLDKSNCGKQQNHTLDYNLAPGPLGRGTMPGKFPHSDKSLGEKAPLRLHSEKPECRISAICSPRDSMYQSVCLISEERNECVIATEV
UniProt Q9HAU5, sequence (whole entry, looked up): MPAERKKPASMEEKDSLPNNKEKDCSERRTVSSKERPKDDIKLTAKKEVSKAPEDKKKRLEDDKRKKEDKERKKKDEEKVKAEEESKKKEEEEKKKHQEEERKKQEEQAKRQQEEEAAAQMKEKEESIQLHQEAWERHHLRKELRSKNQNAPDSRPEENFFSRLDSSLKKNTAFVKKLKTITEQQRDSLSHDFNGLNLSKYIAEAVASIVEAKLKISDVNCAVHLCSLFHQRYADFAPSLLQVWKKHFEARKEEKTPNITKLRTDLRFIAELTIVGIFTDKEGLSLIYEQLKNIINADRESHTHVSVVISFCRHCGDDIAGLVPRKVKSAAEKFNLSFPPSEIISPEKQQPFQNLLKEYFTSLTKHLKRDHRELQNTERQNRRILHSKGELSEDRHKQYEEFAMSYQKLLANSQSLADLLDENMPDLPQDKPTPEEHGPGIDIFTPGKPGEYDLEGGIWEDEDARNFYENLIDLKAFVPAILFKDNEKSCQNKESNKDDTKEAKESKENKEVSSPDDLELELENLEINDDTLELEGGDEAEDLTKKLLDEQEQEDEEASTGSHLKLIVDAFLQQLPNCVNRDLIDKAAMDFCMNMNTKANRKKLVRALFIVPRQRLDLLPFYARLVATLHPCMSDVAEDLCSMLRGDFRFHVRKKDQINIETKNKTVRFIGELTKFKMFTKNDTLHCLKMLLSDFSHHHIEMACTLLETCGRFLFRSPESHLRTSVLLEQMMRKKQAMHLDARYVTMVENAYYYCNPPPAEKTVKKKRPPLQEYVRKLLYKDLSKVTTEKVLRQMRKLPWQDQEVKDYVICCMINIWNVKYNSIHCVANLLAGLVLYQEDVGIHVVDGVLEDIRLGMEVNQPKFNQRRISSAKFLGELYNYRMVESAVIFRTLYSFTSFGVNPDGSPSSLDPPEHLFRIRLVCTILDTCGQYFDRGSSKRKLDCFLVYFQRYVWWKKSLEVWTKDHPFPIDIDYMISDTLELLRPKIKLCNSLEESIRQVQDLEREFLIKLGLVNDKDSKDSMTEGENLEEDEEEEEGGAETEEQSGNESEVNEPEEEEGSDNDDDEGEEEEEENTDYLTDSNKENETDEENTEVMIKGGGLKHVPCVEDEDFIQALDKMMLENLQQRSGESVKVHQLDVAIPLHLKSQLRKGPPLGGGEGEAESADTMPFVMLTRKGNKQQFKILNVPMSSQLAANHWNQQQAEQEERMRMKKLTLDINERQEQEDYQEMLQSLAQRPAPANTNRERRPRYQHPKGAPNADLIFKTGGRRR
UniProt P06959, sequence (whole entry, looked up): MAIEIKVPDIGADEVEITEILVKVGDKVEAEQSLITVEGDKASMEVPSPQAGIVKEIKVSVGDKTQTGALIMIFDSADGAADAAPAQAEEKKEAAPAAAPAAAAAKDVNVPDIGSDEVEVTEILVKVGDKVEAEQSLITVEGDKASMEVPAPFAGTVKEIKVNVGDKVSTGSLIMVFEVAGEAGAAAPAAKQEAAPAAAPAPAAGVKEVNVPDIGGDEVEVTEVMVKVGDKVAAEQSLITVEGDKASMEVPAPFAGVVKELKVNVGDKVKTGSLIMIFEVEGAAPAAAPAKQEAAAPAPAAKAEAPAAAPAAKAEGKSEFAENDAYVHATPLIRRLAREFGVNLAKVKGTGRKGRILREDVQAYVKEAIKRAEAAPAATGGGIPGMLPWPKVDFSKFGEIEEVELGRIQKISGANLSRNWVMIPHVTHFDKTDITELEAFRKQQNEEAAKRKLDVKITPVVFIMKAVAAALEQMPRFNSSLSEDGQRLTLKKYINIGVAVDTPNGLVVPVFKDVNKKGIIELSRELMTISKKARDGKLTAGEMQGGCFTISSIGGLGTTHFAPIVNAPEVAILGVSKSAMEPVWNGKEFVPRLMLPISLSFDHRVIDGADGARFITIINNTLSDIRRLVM
UniProt P53114, sequence (whole entry, looked up): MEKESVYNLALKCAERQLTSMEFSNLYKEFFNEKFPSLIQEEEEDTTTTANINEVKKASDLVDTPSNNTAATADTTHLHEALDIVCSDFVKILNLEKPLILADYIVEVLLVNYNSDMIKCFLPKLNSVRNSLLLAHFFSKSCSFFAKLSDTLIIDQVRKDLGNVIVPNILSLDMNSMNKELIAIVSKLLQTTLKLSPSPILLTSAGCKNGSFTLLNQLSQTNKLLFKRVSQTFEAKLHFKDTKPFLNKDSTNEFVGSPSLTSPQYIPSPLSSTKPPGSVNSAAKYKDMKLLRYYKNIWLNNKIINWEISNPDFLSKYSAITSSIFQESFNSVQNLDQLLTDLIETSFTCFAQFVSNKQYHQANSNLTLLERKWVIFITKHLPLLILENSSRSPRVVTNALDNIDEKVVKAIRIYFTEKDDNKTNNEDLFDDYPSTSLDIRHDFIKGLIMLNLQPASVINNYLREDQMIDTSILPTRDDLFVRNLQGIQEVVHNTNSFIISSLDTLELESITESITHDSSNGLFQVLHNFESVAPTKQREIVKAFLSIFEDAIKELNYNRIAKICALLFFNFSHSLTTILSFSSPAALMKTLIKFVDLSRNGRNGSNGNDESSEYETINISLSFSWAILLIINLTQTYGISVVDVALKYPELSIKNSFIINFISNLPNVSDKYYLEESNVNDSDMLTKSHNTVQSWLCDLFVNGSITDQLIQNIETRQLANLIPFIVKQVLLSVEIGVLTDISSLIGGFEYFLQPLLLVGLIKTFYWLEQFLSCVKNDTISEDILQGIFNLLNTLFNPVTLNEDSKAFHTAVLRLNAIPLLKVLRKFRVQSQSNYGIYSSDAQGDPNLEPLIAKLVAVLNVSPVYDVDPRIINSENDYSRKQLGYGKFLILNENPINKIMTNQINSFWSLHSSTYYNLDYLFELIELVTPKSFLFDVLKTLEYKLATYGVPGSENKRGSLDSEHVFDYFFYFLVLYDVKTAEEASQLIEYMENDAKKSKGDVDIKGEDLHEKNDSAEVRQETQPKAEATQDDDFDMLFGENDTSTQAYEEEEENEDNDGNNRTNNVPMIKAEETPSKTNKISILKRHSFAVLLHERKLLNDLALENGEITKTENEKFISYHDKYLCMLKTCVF
UniProt Q13137, sequence (whole entry, looked up): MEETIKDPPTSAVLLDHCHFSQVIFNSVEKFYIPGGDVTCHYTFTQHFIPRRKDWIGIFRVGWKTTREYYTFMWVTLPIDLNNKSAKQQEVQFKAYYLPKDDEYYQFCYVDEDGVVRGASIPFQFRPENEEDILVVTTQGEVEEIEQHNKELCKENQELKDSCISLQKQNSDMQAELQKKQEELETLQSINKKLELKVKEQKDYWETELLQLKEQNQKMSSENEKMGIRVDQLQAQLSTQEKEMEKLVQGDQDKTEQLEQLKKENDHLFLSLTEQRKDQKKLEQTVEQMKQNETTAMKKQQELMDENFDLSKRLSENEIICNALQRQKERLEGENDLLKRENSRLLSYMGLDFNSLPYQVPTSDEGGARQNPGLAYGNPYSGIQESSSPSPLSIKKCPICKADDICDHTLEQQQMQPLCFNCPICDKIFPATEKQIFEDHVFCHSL
UniProt P84091, sequence (whole entry, looked up): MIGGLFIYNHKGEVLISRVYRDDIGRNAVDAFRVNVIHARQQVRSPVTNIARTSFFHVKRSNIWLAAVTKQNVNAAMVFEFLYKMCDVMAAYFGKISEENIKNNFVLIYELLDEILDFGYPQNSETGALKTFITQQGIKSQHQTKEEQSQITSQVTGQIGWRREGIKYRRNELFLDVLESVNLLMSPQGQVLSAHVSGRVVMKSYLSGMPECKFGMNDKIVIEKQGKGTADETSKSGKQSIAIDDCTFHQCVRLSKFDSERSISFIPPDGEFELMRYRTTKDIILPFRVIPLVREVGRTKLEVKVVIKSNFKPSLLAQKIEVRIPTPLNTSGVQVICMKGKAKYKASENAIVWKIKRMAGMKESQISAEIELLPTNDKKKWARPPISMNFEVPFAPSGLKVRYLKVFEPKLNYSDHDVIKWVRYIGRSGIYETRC

Substance | partner | technique | form | temperature | setting | binding
B1 (ERRFI1 330-399 Y358A) | EGFR 696-1022 (Homo sapiens, UniProt P00533) | fluorescence polarization |  |  | apparent | binds
aceF (Escherichia coli, UniProt P06959) | aceE (Escherichia coli, UniProt P0AFG8) | negative-stain EM, thermal unfolding |  |  |  | binds
B2 (Rai14 1-400) | Pacsin1 (Rattus norvegicus, UniProt Q9Z0W5) | pull-down |  |  |  | binds
KESALRKQDLLLLFDPLFR (TACC3 to 568 550-568 S558D/Y560L/K562L/L567F (Homo sapiens, UniProt Q9Y6A5); sequence looked up) | CLTC 358-574 (Homo sapiens, UniProt Q00610) | peptide array | peptide |  |  | binds
B3 (SIN4 1-974) | NUT1 1-1132 (Saccharomyces cerevisiae, UniProt P53114) | cryo-EM |  |  |  | binds
B4 (RB1CC1 1286-1594) | CALCOCO2 1-316 (Homo sapiens, UniProt Q13137) | SEC |  |  |  | binds
B5 (PAN1 543-850) | PAN1 689-1190 (Saccharomyces cerevisiae, UniProt P32521) | pull-down |  |  |  | binds
B6 (RAD18 267-402) | MAGEA4 101-312 R297A (Homo sapiens, UniProt P43358) | TR-FRET |  |  |  | binds
B7 (CCDC32) | Ap2m1 122-435 (Mus musculus, UniProt P84091) | pull-down |  |  |  | binds
B8 (FAM126B 1-308) | TTC7B (Homo sapiens, UniProt Q86TV6) | SEC |  |  |  | binds
B9 (NOTCH2 221-530) | DLL4 27-400 (Homo sapiens, UniProt Q9NR61) | SPR |  |  |  | binds
B10 (RAD17 1-401) | MEC3 (Saccharomyces cerevisiae, UniProt Q02574) | cryo-EM |  |  |  | binds
B11 (GP1BA 17-306 D235Y/M239V) | VWF mature, plasma-derived (Homo sapiens, UniProt P04275) | ELISA |  |  |  | binds
ARTKQTARKSTGGKAY (histone H3 residues 1-15; K9me3) | ATRX 1-321 E252L (Homo sapiens, UniProt P46100) | ITC | peptide | 25 °C |  | binds
B12 (UPF3B 2-483) | UPF2 (Homo sapiens, UniProt Q9HAU5) | pull-down |  |  |  | binds
B13 (POL30 1-258) | CTF18/CTF8/DCC1/RFC2/RFC3/RFC4/RFC5 clamp loader complex (Saccharomyces cerevisiae) | cryo-EM |  |  |  | binds

A few entries again:
Substance | partner | technique | form | temperature | setting | binding
B9 (NOTCH2 221-530) | DLL4 27-400 (Homo sapiens, UniProt Q9NR61) | SPR |  |  |  | binds
ARTKQTARKSTGGKAY (histone H3 residues 1-15; K9me3) | ATRX 1-321 E252L (Homo sapiens, UniProt P46100) | ITC | peptide | 25 °C |  | binds
